Experimental data collected from several papers.
Compare with care: the assays were run in different laboratories. Values joined by “and” are separate records of one study, mostly repeats; a detail may differ. ± marks the error that the study gave.

For `COc1cc(C)c(Cc2ccc(O)cc2)cc1[C@@H]1S[C@H](CO)[C@@H](O)[C@H](O)[C@H]1O`, the half-life was 24.7 ± 8.12 h (Japanese T2DM patients, plasma; 0.5 mg luseogliflozin, day 1, once daily).
For `CCC(CC)[C@H](NC(C)=O)[C@@H]1[C@H](O)[C@@H](C(=O)N[C@H](C(=O)O)[C@@H](C)CC)C[C@H]1NC(=N)N`, the half-life was 43.2 ± 1.3 h (phosphate buffer; pH 1.2, 37 °C).
With `C[C@H](NC(=O)COC(=O)[C@H](C)NC(=O)CO)C(=O)O` the half-life was 34.4 h (water; pH 2, 65 °C).
The half-life of `CC(C)C[C@@H]1NC(=O)[C@H](C)NC(=O)[C@H](CC2CCN(C(=N)N)CC2)NC(=O)[C@H](Cc2ccccc2)NC(=O)[C@H](CCCNC(=N)N)NC(=O)[C@H](C)NC(=O)[C@@H]2CCCN2C(=O)[C@@H](N)CSSC[C@@H](C(=O)O)NC(=O)[C@H](Cc2ccccc2)NC1=O` is reported as greater than 24 h (remaining inhibitory activity; human plasma).
The half-life of `Nc1nc2c(ncn2COCCOC(=O)[C@@H](N)CS)c(=O)[nH]1` is reported as 15.5 ± 1.7 h (DPBS; pH 5.0, 34 °C, chemical hydrolysis).
For `Cc1ccccc1-c1cc(N2CCNCC2)ncc1N(C)C(=O)C(C)(C)c1cc(C(F)(F)F)cc(C(F)(F)F)c1`, the half-life was 73.6 h (healthy volunteers, plasma; oral, dose not given, netupitant-palonosetron fixed-dose combination).
With `CCC(C)C(N)C(=O)OC(C)OC(=O)C1=CC(N=C(N)N)C(NC(C)=O)C(C(O)C(O)CO)O1` (mixture of isomers) the half-life was greater than 4 h (acetate buffer; pH 4, 37 °C, chemical hydrolysis).
`CCC(CC)[C@H](NC(C)=O)[C@@H]1[C@H](O)[C@@H](C(=O)OCCOC(=O)[C@@H](N)C(C)C)C[C@H]1NC(=N)N` has a half-life of 2.97 ± 0.367 h (phosphate buffer; pH 7.4, 37 °C, chemical stability).
The half-life of `CCC(=O)N[C@@H](C)C(=O)OCC(=O)N[C@@H](C)C(=O)O` is reported as 1390 h (water; pH 2, 25 °C).
The half-life of `CC(C)C[C@H](NC(=O)[C@H](C)NC(=O)[C@H](Cc1c[nH]c2ccccc12)NC(=O)[C@H](Cc1ccc(O)cc1)NC(=O)[C@H](CCC(=O)O)NC(=O)[C@H](C)NC(=O)[C@H](Cc1ccccc1)NC(=O)[C@H](CO)NC(=O)[C@@H](N)[C@@H](C)O)C(=O)N[C@@H](CC(C)C)C(=O)N[C@@H](CO)C(=O)N1CCC[C@H]1C(=O)O` is reported as less than 0.1 h (chymotrypsin digestion, substrate, HPLC-MS; room temperature).
`O=[N][Fe]1([N]=O)[S](CCO)[Fe]([N]=O)([N]=O)[S]1CCO` gave a half-life of 0.4 ± 0.1 h (PBS; 25 µM, pH 7.4, 37 °C, added: L-cysteine 150 µM).
For `O=C(CCc1ccc(CNC(C(=O)OC2CCCC2)C2CCCCC2)cn1)NO` (stereo not drawn), the half-life was 0.35 to 0.5 h (healthy volunteers, plasma; oral, single dose).
For `Cc1ccccc1OCC(N)c1ccccc1` (stereo not drawn), the half-life was greater than 720 h (chemical stability, HPLC; pH 7.4, 37 °C).
With `O=C(Nc1ccc(-c2noc(C3CC3)n2)c(Cl)c1)c1cccs1` the half-life was 1.48 h and 1.49 h (plasma stability; mouse plasma; 5 µM, 37 °C).
`[2H]C([2H])(c1ccccc1)C([2H])([2H])N1C(=O)CC(=O)N(C([2H])([2H])C([2H])([2H])c2ccccc2)C1=O` has a half-life of 0.233 h (metabolic stability; mouse liver microsomes).
The half-life of `Cc1nc(-c2ccc(NC(=O)c3cccs3)cc2Cl)no1` is reported as 0.436 ± 0.125 h (chemical stability; buffer; 5 µM, pH 2.0, 37 °C).
The half-life of `CCOC(=O)CCC(=O)Oc1ccc(/C=C/C(=O)/C=C(O)/C=C/c2ccc(OC(=O)CCC(=O)OCC)c(OC)c2)cc1OC` is reported as 0.00152 ± 0.000103 h (rat plasma; 1.5 µM, 37 °C).
Under half-life, `C#CCOCCOCCOCCOCCn1cc(C(ONC(=O)/C=C/C(C)=C/C2(C)Oc3cc(N(C)C)ccc3C2=O)(c2ccccc2)c2ccccc2)nn1` (stereo not drawn) is recorded as “stable” (HPLC; aqueous buffer; pH 5.0).
`CC[C@H](C)[C@H](NC(=O)CNC(=O)CNC(=O)c1ccc2c(c1)C(=O)OC21c2ccc(O)cc2Oc2cc(O)ccc21)C(=O)N[C@@H](Cc1ccc(O)cc1)C(=O)N[C@@H](C)C(=O)N[C@H](C)C(=O)N1CCC[C@H]1C(=O)N(C)[C@@H](Cc1ccccc1)C(=O)N[C@@H](CCCCN)C(=O)N[C@@H](CCCCN)C(=O)N[C@@H](CCCCN)C(=O)N[C@@H](C)C(N)=O` gave a half-life of 0.085 h (CE-LIF; Baf/BCR-ABL cell cytosolic lysate; 1 µM, pH 7.4, 37 °C).
With `NC(=O)c1cnc2[nH]ccc2c1NC1C2CC3CC1CC(OS(=O)(=O)O)(C3)C2` (stereo not drawn) the half-life was 10.8 h (Japanese adults, normal hepatic function, plasma; oral, 150 mg single dose).
For `CCC(CC)O[C@@H]1C=C(C(=O)OC(OC(=O)[C@@H](N)C(C)C)C(C)C)C[C@H](NC(=N)N)[C@H]1NC(C)=O` (single isomer, unassigned), half-life read “stable” (acetate buffer with pancreatin; pH 5.5).
`CC(C)[C@H](NC(=O)CNC(=O)[C@H](CCC(N)=O)NC(=O)[C@H](C)N)C(=O)O` has a half-life of 0.17 h (healthy volunteers, LPS endotoxaemia, plasma; intravenous, 90 mg/kg/h, 2 h infusion, geometric mean, added: LPS 2 ng/kg).
`[2H]C1([2H])C[C@@H](C[C@@H](C#N)NC(=O)[C@@H]2[C@@H]3[C@H](CN2C(=O)[C@@H](NC(=O)C(F)(F)F)C(C)(C)C)C3(C)C)C(=O)N1` gave a half-life of 1.95 h (human liver microsomes; microsomes 0.5 mg/mL).
`CC(C)C[C@H](NC(=O)[C@@H](N)Cc1c[nH]cn1)C(=O)N1CCC[C@H]1C(=O)N[C@@H](CO)C(=O)N[C@@H](Cc1ccc(O)cc1)C(=O)N[C@@H](CO)C(=O)N1CCC[C@H]1C(=O)N[C@@H](CO)C(=O)N1CCC[C@H]1C(=O)N[C@@H](CCC(N)=O)C(=O)O` gave a half-life of 1.1 ± 0.0632 h (human plasma; 0.1 mg/mL, 37 °C).
For `Nc1nc2c(ncn2COCCOC(=O)[C@@H](N)CO)c(=O)[nH]1`, the half-life was 29.3 ± 2.7 h (DPBS; pH 7.4, 34 °C, chemical hydrolysis).
For `COc1cc(CNC(=O)CCCC/C=C/C(C)C)ccc1N`, the half-life was 36 h (C57BL/6 mouse plasma; 2 µM).
With `N[C@@H](CC(=O)O)C(=O)OC(C(=O)O)c1ccc(Br)cc1[N+](=O)[O-]` (mixture of isomers) the half-life was 10.2 ± 0.1 h (hydrolysis, 1H NMR; aqueous sodium phosphate, 12.5% DMSO-d6; pH 7, dark, less stable diastereomer).
`O=C(Cc1cccc(I)c1)N[C@H]1CCOC1=O` has a half-life of 2 to 3.5 h (TRIS buffer, 0.5% DMSO; 50 µM, pH 8, 37 °C).
For `CC(=O)O[C@@H]1CC[C@@]2(C)C(CC[C@]3(C)C2C(=O)C=C2C4[C@@H](C)[C@H](C)CC[C@]4(C)CC[C@]23C)[C@@]1(C)C(=O)OCC(=O)Oc1cc(C)ccc1C(C)C` (stereo partly drawn), the half-life was 25.3 h (HPLC; 0.1 M HCl; 75 µM, pH 1.4, 37 °C, simulated gastric fluid).
For `CC(=O)N[C@H](CC(=O)O)C(=O)N[C@H](Cc1c[nH]c2ccccc12)C(=O)N[C@H](Cc1ccccc1)C(=O)N[C@H](CCCCN)C(=O)N[C@H](C)C(=O)N[C@H](Cc1ccccc1)C(=O)N[C@H](Cc1ccc(O)cc1)C(=O)N[C@H](CC(=O)O)C(=O)N[C@H](CCCCN)C(=O)N[C@@H](C(=O)N[C@H](C)C(=O)N[C@H](CCC(=O)O)C(=O)N[C@H](CCCCN)C(=O)N[C@H](Cc1ccccc1)C(=O)N[C@H](CCCCN)C(=O)N[C@H](CCC(=O)O)C(=O)N[C@H](C)C(=O)N[C@H](Cc1ccccc1)C(N)=O)C(C)C`, the half-life was 0.46 h (statin-treated high-risk CHD patients, plasma; oral, 100 mg daily, day 13, median, detected subjects).
